# Measured values from different studies.
# Numbers after ± are the reported error.
Structure (SMILES),assay,system,setting,scale,measurement,result
CC(C)(C)c1cc(C(C)(C)C)c(NC(=O)c2c[nH]c3ccccc3c2=O)cc1O,,"pregnant women with cystic fibrosis, plasma",dose not given,reference: non-pregnant individuals,AUC reduction,15.4%
Cc1ccc(C(=O)NC2CC2)cc1-n1ncc(C(=O)c2cccc(C#N)c2)c1N,,healthy volunteers,"oral, 75 mg single dose, mean observed",,AUC,41400 ng·h/mL
O=c1[nH]cc(F)c(=O)[nH]1,,patients,2000 mg/m² over 48 h,,AUC,20000 to 30000 ng·h/mL
N#CCNC(=O)c1ccc(-c2ccnc(Nc3ccc(N4CCOCC4=O)cc3)n2)cc1,,"healthy volunteers, plasma","dose not given, together with: rifampin multiple-dose",reference: with single-dose rifampin,AUC increase,15%
COC(=O)N[C@H](C(=O)N1CCC[C@H]1c1ncc(-c2cc(F)c3c(c2)O[C@@H](c2cnc(C4CC4)s2)n2c-3cc3cc(-c4cnc([C@@H]5CCCN5C(=O)[C@@H](NC(=O)OC)C(C)C)[nH]4)ccc32)[nH]1)C(C)C,,"healthy adults, plasma","oral, 180 mg once daily, day 6, fasted, alone, steady state",,AUC,3770 ng·h/mL
O=C(O)c1cc(O)c(O)c(O)c1,,"broiler chickens, serum","oral, in feed, 2000 mg/kg feed, corn diet, no tannins",,AUC,1.32 ± 0.43 µM·h
Cc1nn(C)cc1S(=O)(=O)NC(=O)c1ccc(-n2ccc(OCC(C)(C)C(F)(F)F)n2)nc1N1C[C@@H](C)CC1(C)C,,"pregnant women with cystic fibrosis, plasma",dose not given,reference: non-pregnant individuals,AUC reduction,62%
COc1c(O)cc(C(=O)O)cc1O,,"broiler chickens, serum","oral, in feed, 2000 mg/kg feed, wheat diet, no tannins",,AUC,0.46 ± 0.11 µM·h
C#C[C@]1(O)CC[C@H]2[C@@H]3CCC4=CC(=O)CC[C@@H]4[C@H]3CC[C@@]21C,radioimmunoassay,"HIV-infected women, no protease inhibitor, serum","oral, 0.35 mg daily, steady state, interval 0-72 h, geometric mean",,AUC,25.2 ng·h/mL

# Excerpt of the above:
Structure (SMILES),assay,system,setting,scale,measurement,result
COc1c(O)cc(C(=O)O)cc1O,,"broiler chickens, serum","oral, in feed, 2000 mg/kg feed, wheat diet, no tannins",,AUC,0.46 ± 0.11 µM·h
